Experimental data pooled from the literature.
Lines come from different studies, so protocols differ.

Structure (SMILES) | cell line | test | setting | how to read | measurement | value
CC/C=C\C/C=C\C/C=C\C/C=C\C/C=C\C/C=C\CCC(=O)Nc1ccn(C2OC(CO)C(O)C2(F)F)c(=O)n1 (stereo not drawn) | MALME-3M | NCI-60 screen | – | – | CC50 | 51.6 µM
CCCCCCCCCCCCCCCC[P+](c1ccccc1)(c1ccccc1)c1ccccc1 | HCT-116 | cell growth or viability | 72 h | – | GI50 | 3.11 µM
CC(=O)Oc1ccc(/C=C/C(=O)Nc2nc(=O)n([C@@H]3O[C@H](C)[C@@H](OC(C)=O)[C@H]3OC(C)=O)cc2F)cc1OC(C)=O | ASPC1 | cell viability, MTT | – | reference: NHDF fibroblasts over ASPC1 | selectivity index | 1.35
COC(=O)[C@H](CC(C)C)NC(=O)[C@@H]1CCCN1C(=O)[C@@H](NC(=O)[C@H](CCC(=O)C=[N+]=[N-])NC(=O)OCc1ccccc1)C(C)C | YAC128 mouse medium spiny neurons | – | concentration not given, together with: NMDA | reference: wild-type neurons | increase in protection | 7%
COC(=O)c1ccc(-n2cc(CCCN(CCNc3ccnc4cc(Cl)ccc34)C(=O)CCC(=O)OC3OC4OC5(C)CCC6C(C)CCC(C3C)C46OO5)nn2)cc1 (stereo not drawn) | HL-60 | cell growth or viability, resazurin | 10 µM, 48 h | – | inhibition | 63.4%
CC[C@H]1OC(=O)[C@H](C(C)C)NC(=O)[C@H](C)OC(=O)[C@@H](C(C)C)NC(=O)[C@@H](C(C)C)OC(=O)[C@H](C(C)C)NC(=O)[C@H](C)OC(=O)[C@@H](C(C)C)NC(=O)[C@@H](C(C)C)OC(=O)[C@H](C(C)C)NC(=O)[C@H](C)OC(=O)[C@@H](C(C)C)NC1=O | U-87 MG | PI staining flow cytometry | 0.8 µM, 12 h | – | G0/G1 phase cells | 81.9%
C[C@H]1C(OCCCCCCCC[P+](c2ccccc2)(c2ccccc2)c2ccccc2)O[C@@H]2O[C@@]3(C)CCC4[C@H](C)CCC1[C@]42OO3 (stereo partly drawn) | J82 and T24 | western blot, item: CDK6 | concentration not given, 48 h | – | protein level | decreased
COC1CC(=O)N(C)C=CCCCC(=O)N(C)C(C(C)C)C(=O)N(C)C(CC(C)C)C(=O)OC(C(C)C)CC(C)C1 (stereo not drawn) | HCT-116 | RNA sequencing, item: ABRA signalling pathway | 20 µM, 12 h | direction not given | pathway activation z-score | 2.45
CC[C@H](C)[C@H](NC(=O)CNC(=O)[C@H](CC(C)C)NC(=O)CNC(=O)[C@H](CCCCN)NC(=O)[C@H](CCC(=O)O)NC(=O)[C@H](CCCCN)NC(=O)[C@@H](NC(=O)[C@H](Cc1ccccc1)NC(=O)[C@H](CC(=O)O)NC(=O)[C@H](CCCCN)NC(=O)[C@H](C)NC(=O)[C@H](CCCCN)NC(=O)[C@H](CC(N)=O)NC(=O)[C@H](CC(C)C)NC(=O)[C@H](Cc1c[nH]c2ccccc12)NC(=O)[C@H](CC(=O)O)NC(=O)[C@H](CCCCN)NC(=O)[C@@H](NC(=O)CNC(=O)[C@H](C)N)[C@@H](C)O)[C@@H](C)CC)C(=O)N[C@@H](CC(C)C)C(=O)N[C@@H](CO)C(=O)N[C@@H](C)C(=O)N[C@@H](C)C(=O)N[C@@H](C)C(=O)N[C@@H](CC(N)=O)C(=O)N[C@@H](C)C(=O)N[C@@H](C)C(=O)N[C@H](C(=O)N[C@@H](CC(N)=O)C(=O)O)[C@@H](C)CC | mouse DRG neurons | – | 10 µM, 90 s | – | intracellular calcium increase | inactive
CC[C@H](C)[C@H](NC(=O)[C@@H](NC(=O)[C@H](CCC(=O)O)NC(=O)[C@H](CCSC)NC(=O)[C@H](CC(C)C)NC(=O)[C@H](CCCCN)NC(=O)[C@H](CCCNC(=N)N)NC(=O)[C@H](CC(N)=O)NC(=O)[C@H](CO)NC(=O)[C@H](Cc1c[nH]cn1)NC(=O)[C@H](C)NC(=O)[C@H](CCC(N)=O)NC(=O)[C@H](CCC(N)=O)NC(=O)[C@H](C)NC(=O)[C@H](CC(C)C)NC(=O)[C@H](CCC(N)=O)NC(=O)[C@H](CCC(=O)O)NC(=O)[C@H](C)NC(=O)[C@H](CCCNC(=N)N)NC(=O)[C@H](C)NC(=O)[C@H](CCSC)NC(=O)[C@H](CCC(=O)O)NC(=O)[C@H](CC(C)C)NC(=O)[C@@H](NC(=O)[C@H](CCC(=O)O)NC(=O)[C@H](CCCNC(=N)N)NC(=O)[C@H](CC(C)C)NC(=O)[C@H](CC(C)C)NC(=O)[C@H](Cc1c[nH]cn1)NC(=O)[C@H](Cc1ccccc1)NC(=O)[C@@H](NC(=O)[C@H](CC(C)C)NC(=O)[C@H](CC(=O)O)NC(=O)[C@H](CC(C)C)NC(=O)[C@H](CO)NC(=O)[C@@H](NC(=O)[C@@H]1CCCN1C(=O)[C@@H]1CCCN1C(=O)[C@H](CCC(=O)O)NC(=O)[C@H](CCC(=O)O)NC(=O)[C@@H](N)CO)[C@@H](C)CC)[C@@H](C)O)C(C)C)[C@@H](C)CC)C(N)=O | αT3-1 | agonist | 200 nM | – | time to maximal cAMP | 2 to 5 min
C[C@H]1C(OCCCCCCC[P+](c2ccccc2)(c2ccccc2)c2ccccc2)O[C@@H]2O[C@@]3(C)CCC4[C@H](C)CCC1[C@]42OO3 (stereo partly drawn) | T24 | MTT | 72 h | reference: HUVEC IC50 over T24 IC50 | selectivity index | 2.67
CC(C)[C@H](NC(=O)c1ccc(CNc2nc3c(c(=O)[nH]2)CCC3)cc1)C(=O)NC1CNC1 | mouse osteoclast precursors | – | 10 µM, 5 to 7 d, together with: M-CSF and RANKL | reference: control | osteoclast differentiation | 31%

Repeated from above:
Structure (SMILES) | cell line | test | setting | how to read | measurement | value
C[C@H]1C(OCCCCCCC[P+](c2ccccc2)(c2ccccc2)c2ccccc2)O[C@@H]2O[C@@]3(C)CCC4[C@H](C)CCC1[C@]42OO3 (stereo partly drawn) | T24 | MTT | 72 h | reference: HUVEC IC50 over T24 IC50 | selectivity index | 2.67
